Assay results of several laboratories.
Parts stem from different laboratories: compare values within a part only.
Chain of UniProt Q96RR4 (whole entry, looked up): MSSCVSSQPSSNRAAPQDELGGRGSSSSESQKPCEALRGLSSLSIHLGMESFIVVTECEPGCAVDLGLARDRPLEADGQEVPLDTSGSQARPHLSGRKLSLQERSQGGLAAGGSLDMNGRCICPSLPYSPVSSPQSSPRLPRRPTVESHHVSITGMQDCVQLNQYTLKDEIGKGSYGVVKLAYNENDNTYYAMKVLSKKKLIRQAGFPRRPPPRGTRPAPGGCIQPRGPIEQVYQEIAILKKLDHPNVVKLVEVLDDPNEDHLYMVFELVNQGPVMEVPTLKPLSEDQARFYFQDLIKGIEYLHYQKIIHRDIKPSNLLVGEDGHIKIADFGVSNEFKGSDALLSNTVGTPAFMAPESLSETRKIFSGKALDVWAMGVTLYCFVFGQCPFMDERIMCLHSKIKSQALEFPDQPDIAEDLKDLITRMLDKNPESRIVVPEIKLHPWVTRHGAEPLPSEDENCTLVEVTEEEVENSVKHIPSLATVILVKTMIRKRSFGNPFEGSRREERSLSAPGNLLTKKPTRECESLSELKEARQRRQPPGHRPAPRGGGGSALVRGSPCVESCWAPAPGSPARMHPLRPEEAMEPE
Chain of UniProt Q8WU08 (whole entry, looked up): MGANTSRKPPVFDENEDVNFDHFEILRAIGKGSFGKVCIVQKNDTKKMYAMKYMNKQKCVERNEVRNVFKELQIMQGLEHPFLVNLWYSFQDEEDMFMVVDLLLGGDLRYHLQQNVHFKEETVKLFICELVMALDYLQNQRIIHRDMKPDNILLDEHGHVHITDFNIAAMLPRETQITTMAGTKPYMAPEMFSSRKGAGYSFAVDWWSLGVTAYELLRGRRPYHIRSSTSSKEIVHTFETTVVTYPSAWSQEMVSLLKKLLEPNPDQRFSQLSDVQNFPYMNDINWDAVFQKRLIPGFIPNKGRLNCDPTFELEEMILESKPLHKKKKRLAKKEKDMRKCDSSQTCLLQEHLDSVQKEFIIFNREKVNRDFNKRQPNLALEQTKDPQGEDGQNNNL
Chain of UniProt P09619 (whole entry, looked up): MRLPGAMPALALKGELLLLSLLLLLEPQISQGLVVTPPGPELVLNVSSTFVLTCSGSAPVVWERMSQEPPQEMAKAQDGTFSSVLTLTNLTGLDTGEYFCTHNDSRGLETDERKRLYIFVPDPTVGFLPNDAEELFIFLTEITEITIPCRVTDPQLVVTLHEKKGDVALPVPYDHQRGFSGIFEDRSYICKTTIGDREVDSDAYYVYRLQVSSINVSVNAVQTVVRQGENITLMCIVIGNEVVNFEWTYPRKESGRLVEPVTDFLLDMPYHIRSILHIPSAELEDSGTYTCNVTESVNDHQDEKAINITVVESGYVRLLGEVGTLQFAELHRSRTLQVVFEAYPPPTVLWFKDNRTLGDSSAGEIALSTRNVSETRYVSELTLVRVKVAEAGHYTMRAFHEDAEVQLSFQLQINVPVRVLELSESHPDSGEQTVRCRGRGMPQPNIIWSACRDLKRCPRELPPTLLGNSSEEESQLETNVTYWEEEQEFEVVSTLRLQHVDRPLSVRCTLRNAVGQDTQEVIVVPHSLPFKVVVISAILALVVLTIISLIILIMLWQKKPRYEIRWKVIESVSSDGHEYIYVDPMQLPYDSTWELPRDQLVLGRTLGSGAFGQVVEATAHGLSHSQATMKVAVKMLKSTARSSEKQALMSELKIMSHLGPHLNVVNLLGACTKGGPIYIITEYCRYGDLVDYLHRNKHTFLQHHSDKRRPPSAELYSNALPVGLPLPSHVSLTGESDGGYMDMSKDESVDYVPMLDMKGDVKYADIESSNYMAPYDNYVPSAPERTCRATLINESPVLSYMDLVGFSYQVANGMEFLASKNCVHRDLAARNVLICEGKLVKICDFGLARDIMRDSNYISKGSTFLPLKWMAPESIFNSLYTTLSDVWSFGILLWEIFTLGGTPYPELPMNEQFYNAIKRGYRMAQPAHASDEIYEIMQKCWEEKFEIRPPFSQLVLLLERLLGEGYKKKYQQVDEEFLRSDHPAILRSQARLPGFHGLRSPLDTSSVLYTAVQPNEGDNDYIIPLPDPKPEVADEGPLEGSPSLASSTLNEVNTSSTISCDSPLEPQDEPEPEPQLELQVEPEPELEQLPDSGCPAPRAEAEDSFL
Chain of UniProt P11802 (whole entry, looked up): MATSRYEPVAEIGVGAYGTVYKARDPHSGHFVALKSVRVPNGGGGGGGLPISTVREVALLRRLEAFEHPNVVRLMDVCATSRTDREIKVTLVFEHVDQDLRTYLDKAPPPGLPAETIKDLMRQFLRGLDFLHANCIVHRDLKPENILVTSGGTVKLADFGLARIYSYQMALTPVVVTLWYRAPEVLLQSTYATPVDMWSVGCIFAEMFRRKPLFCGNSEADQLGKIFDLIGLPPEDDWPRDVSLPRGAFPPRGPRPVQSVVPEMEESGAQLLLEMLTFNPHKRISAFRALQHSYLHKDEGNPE
Chain of UniProt P49674 (whole entry, looked up): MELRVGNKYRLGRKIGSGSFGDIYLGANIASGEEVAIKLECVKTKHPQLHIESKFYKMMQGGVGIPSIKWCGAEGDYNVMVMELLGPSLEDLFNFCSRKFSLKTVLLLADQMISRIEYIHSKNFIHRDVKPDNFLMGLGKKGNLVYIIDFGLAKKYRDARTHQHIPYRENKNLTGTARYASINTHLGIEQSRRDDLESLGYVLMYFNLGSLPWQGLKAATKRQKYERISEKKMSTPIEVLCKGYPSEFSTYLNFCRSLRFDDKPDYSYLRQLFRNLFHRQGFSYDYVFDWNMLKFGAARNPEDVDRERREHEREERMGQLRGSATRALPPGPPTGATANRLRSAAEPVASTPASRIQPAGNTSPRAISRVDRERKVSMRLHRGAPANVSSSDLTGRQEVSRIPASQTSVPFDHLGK
Chain of UniProt O14730 (whole entry, looked up): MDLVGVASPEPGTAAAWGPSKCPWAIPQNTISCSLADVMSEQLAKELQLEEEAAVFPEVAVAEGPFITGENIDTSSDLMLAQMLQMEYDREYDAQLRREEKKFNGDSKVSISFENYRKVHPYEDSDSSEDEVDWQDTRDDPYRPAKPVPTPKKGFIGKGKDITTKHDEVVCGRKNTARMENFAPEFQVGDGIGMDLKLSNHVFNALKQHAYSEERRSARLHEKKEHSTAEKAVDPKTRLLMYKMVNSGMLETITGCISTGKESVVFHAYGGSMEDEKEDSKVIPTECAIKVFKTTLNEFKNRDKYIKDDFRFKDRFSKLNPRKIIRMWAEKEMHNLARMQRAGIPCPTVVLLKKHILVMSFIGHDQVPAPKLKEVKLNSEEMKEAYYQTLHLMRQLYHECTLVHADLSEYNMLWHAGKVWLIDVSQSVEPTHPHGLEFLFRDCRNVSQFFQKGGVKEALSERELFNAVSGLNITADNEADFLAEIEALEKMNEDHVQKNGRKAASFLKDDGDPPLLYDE
Chain of UniProt Q9H422 (whole entry, looked up): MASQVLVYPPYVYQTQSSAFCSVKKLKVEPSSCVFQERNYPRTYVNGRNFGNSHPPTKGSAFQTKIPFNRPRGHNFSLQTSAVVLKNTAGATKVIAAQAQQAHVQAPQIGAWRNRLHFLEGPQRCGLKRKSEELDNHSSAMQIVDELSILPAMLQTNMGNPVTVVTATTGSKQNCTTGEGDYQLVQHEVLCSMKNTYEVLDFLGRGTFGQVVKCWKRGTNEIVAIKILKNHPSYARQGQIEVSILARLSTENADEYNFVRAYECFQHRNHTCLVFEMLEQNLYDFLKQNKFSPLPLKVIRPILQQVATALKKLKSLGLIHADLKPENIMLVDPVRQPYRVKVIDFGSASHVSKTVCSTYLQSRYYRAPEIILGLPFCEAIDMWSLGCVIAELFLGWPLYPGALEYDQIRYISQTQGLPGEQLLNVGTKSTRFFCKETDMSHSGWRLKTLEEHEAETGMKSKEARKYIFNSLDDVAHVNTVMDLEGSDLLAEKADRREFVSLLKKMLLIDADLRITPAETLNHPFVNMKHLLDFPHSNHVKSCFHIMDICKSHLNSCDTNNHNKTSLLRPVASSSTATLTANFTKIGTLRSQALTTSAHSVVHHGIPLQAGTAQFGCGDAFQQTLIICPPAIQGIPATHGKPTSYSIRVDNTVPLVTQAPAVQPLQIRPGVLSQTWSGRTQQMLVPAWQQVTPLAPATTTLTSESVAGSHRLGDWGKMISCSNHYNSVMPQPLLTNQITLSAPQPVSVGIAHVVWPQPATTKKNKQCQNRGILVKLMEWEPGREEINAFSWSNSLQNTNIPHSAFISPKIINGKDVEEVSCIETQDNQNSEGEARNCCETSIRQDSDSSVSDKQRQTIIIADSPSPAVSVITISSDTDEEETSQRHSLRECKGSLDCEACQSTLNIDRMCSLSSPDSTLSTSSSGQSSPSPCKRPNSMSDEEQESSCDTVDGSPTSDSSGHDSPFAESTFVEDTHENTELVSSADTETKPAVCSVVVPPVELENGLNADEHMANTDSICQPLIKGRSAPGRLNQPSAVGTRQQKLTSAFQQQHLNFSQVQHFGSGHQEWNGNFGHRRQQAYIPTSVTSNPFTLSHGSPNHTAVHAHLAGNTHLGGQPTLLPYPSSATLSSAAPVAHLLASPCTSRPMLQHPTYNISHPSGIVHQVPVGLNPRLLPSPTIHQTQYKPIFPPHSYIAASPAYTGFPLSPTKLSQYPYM

Study 1
Target: Serine/threonine-protein kinase pim-1 (PIM1, Homo sapiens, UniProt P11309)
Chain of UniProt P11309 (whole entry, looked up): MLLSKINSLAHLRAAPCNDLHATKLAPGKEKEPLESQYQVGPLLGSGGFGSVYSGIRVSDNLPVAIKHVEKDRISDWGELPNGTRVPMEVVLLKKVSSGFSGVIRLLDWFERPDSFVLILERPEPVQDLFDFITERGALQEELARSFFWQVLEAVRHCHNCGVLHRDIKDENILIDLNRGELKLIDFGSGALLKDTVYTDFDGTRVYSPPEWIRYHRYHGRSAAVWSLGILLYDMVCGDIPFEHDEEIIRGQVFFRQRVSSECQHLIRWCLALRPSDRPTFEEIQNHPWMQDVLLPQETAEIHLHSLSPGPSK
Observed: enzyme activity
Action: inhibitor
Tested at: 0.5 µM
Relative to: control
| SMILES | remaining activity [%] |
| --- | --- |
| Nc1nccc(-c2c(-c3ccc(F)cc3)ncn2C2CCNCC2)n1 | 97 |
| Nc1nc(Nc2ccc(S(N)(=O)=O)cc2)nn1C(=O)c1c(F)cccc1F | 97.6 |
| Cc1cc(Nc2nc(-c3ccccc3)nc3ccccc23)n[nH]1 | 83.3 |
| O=C1NC(=O)C(c2c[nH]c3ccccc23)=C1c1c[nH]c2ccccc12 | 17.2 |
| O=S(=O)(NCCNC/C=C/c1ccc(Br)cc1)c1cccc2cnccc12 | 90.1 |
| CCCC(=O)Oc1ccc2[nH]c(C(=O)c3cc4ccccc4[nH]3)cc2c1 | 100 |

Study 2
SMILES: O=C1CCc2cc(Nc3cc(OC4CCOCC4)c([N+](=O)[O-])cc3Cl)ccc2N1
Observed: cell-free assay
Technique: competition with immobilised ligand
Tested at: 1 µM
| target | remaining binding [%] |
| --- | --- |
| Platelet-derived growth factor receptor beta (PDGFRB, Homo sapiens, UniProt P09619) | 97 |
| Cyclin-G-associated kinase (GAK, Homo sapiens, UniProt O14976) | 100 |
| Serine/threonine-protein kinase RIO3 (RIOK3, Homo sapiens, UniProt O14730) | 100 |
| Receptor-type tyrosine-protein kinase FLT3 (FLT3, Homo sapiens, UniProt P36888, D835V) | 70 |
| Serine/threonine-protein kinase ICK (CILK1, Homo sapiens, UniProt Q9UPZ9) | 100 |
| Receptor-type tyrosine-protein kinase FLT3 (FLT3, Homo sapiens, UniProt P36888, D835Y) | 100 |
| Cyclin-dependent kinase 4, with cyclin D3 (CDK4, Homo sapiens, UniProt P11802) | 90 |
| Calcium/calmodulin-dependent protein kinase kinase 2 (CAMKK2, Homo sapiens, UniProt Q96RR4) | 100 |
| MAP kinase-interacting serine/threonine-protein kinase 1 (MKNK1, Homo sapiens, UniProt Q9BUB5) | 100 |
| Tyrosine-protein kinase Blk (BLK, Homo sapiens, UniProt P51451) | 94 |
| Dual specificity protein kinase CLK2 (CLK2, Homo sapiens, UniProt P49760) | 99 |
| Homeodomain-interacting protein kinase 3 (HIPK3, Homo sapiens, UniProt Q9H422) | 91 |
| Discoidin domain-containing receptor 2 (DDR2, Homo sapiens, UniProt Q16832) | 100 |
| Calcium/calmodulin-dependent protein kinase type II subunit delta (CAMK2D, Homo sapiens, UniProt Q13557) | 100 |
| Epidermal growth factor receptor (EGFR, Homo sapiens, UniProt P00533, del747-752/P753S) | 65 |
| Serine/threonine-protein kinase 32A (STK32A, Homo sapiens, UniProt Q8WU08) | 90 |
| Casein kinase I isoform epsilon (CSNK1E, Homo sapiens, UniProt P49674) | 100 |
| Serine/threonine-protein kinase VRK2 (VRK2, Homo sapiens, UniProt Q86Y07) | 100 |

Study 3
Cell line: A-375
Tested at: 100 µM
Time: 36 h
| SMILES | viability |
| --- | --- |
| CC(C)(Sc1cc(C(C)(C)C)c(O)c(C(C)(C)C)c1)Sc1cc(C(C)(C)C)c(O)c(C(C)(C)C)c1 | 62.6% |
| CC1(C)NC(=O)N(c2ccc([N+](=O)[O-])c(C(F)(F)F)c2)C1=O | 77.8% |
| Cc1cc(O)cc(C)c1Cl | 24.6% |
| CCN1CCCC1CNC(=O)c1cc(S(=O)(=O)CC)c(N)cc1OC (stereo not shown) | 95% |
| N[C@@H](CC(=O)N1CCn2c(nnc2C(F)(F)F)C1)Cc1cc(F)c(F)cc1F | 101% |
| Cc1c(Cl)cccc1Nc1ccccc1C(=O)O | 92.5% |

Study 4
Species: mouse
Medium: microsomes or S9
Tested at: 2 µM
Time: 0.5 h
| SMILES | remaining compound [%] |
| --- | --- |
| CCOC(=O)c1ccc(Nc2nc3ccc(Cl)cc3n3cnnc23)cc1 | 67.7 |
| CC(C(=O)Nc1nnn[nH]1)c1ccc(-c2ccccc2)c(F)c1 (stereo not shown) | 88.2 |
| O=C1Nc2ccccc2C1(c1c[nH]c2ccccc12)c1c[nH]c2ccccc12 | 89.1 |
| CS(=O)(=O)N1N=C(c2cccs2)CC1c1ccccc1F (stereo not shown) | 25.7 |
| CNc1nc(NC(C)(C)C)nc(NC(C)(C)C)n1 | 5.17 |
| CCN(CC)S(=O)(=O)c1ccc(C(=O)Nc2sc3c(c2C(N)=O)CC(C)(C)NC3(C)C)cc1 | 23.7 |
| CCOc1ccc(-n2nc3ccc(N)cc3n2)cc1 | 0.851 |

Some of these lines once more (study 3):
| SMILES | viability |
| --- | --- |
| CC1(C)NC(=O)N(c2ccc([N+](=O)[O-])c(C(F)(F)F)c2)C1=O | 77.8% |
| Cc1cc(O)cc(C)c1Cl | 24.6% |
| CCN1CCCC1CNC(=O)c1cc(S(=O)(=O)CC)c(N)cc1OC (stereo not shown) | 95% |
